Measured values pooled from the literature.
± gives the spread as reported.
HDAC8: Histone deacetylase 8 (HDAC8, Homo sapiens, UniProt Q9BY41)
CHRM2: Muscarinic acetylcholine receptor M2 (CHRM2, Homo sapiens, UniProt P08172)
EPHX2: Bifunctional epoxide hydrolase 2 (EPHX2, Homo sapiens, UniProt P34913)
PGR: Progesterone receptor (PGR, Homo sapiens, UniProt P06401)

| Compound | target | assay | test system | conditions | how to read | quantity | result |
| --- | --- | --- | --- | --- | --- | --- | --- |
| O=C(CCCCCCNCc1ccccc1)NO | HDAC8 | inhibitor |  |  | reference: IC50 HDAC8 over HDAC1 | selectivity ratio | 5.3 |
| [3H]CC([3H])C(=O)NCc1cc(C(=O)NCCN2CCC(N3CCC(n4c(=O)[nH]c5ccccc54)CC3)CC2)cc(C(=O)NCCN2CCN(CCCCC3CCN(CC(=O)N4c5ccccc5NC(=O)c5ccccc54)CC3)CC2)c1 (centres unmarked) | CHRM2 | dissociation kinetics | CHO cell homogenates | 23 °C, with: 6 at 1000-fold excess |  | koff | 0.000367 ± 3.33e-05 s⁻¹ |
| Cc1ccc2ccc3ccc(C)nc3c2n1.Cc1ccc2ccc3ccc(C)nc3c2n1.O.[Cl-].[Cl-].[Cl-].[Yb+3] | Albumin (ALB, Bos taurus, UniProt P02769) | fluorescence quenching |  | 303 K |  | ΔG° | -7.4307 ± 0.00717 kcal/mol |
| CCC(C)C(=O)NC1CCN(C(=O)c2ccc(NC(=O)NC34CC5CC(C)(CC(C)(C5)C3)C4)cc2)CC1 (centres unmarked) | EPHX2 |  |  |  |  | lipophilic ligand efficiency | 5.63 |
| CCc1nc2cc3ccccc3cc2cc1C(=O)N1CCC[C@H]1C(=O)N[C@@H](C/C=C/C[C@H](NC(=O)[C@@H]1CCCN1C(=O)c1cc2cc3ccccc3cc2nc1CC)C(=O)N[C@@H](CCCCN)C(=O)NCCCN)C(=O)N[C@@H](CCCCN)C(=O)NCCCN | CUG–CAG duplex RNA | SPR |  |  |  | residence time | 180 s |
| Cc1cc(=O)oc2cc(NC(=O)CCCCCCC(=O)NO)ccc12 | HDAC8 | temperature-dependent ITC | Tris-HCl buffer | range from 5 °C |  | ΔCp | -0.11 ± 0.01 kcal mol^–1 K^–1 |
| Cc1ncsc1-c1ccc([C@@H]2CCCCCCNC(=O)C[C@@H]3N=C(c4ccc(cc4)OCCCCCC(=O)N[C@@H](C(C)(C)C)C(=O)N4C[C@H](O)C[C@H]4C(=O)N2)c2c(sc(C)c2C)-n2c(C)nnc23)cc1 | BRD4/VHL, BD2; with elongins B/C (Homo sapiens, UniProt O60885+P40337) | ternary complex formation, biolayer interferometry |  | BRD4 BD2 with VHL-ElonginC-ElonginB |  | cooperativity factor alpha | 5.2 |
| O=C([O-])CN1CCN(CC(=O)[O-])CCN(C(CCC(=O)NCCCCCN(CCCC[C@H](NC(=O)N[C@@H](CCC(=O)O)C(=O)O)C(=O)O)C(=O)c2ccc(I)cc2)C(=O)O)CCN(CC(=O)[O-])CC1.[68Ga+3] (some centres unmarked) | FOLH1 (Homo sapiens, UniProt Q04609) | PET/CT | human, primary prostate lesion |  |  | SUVmax | ~29.7 |
| CC(C)CSc1nc2c([nH]1)c(=S)n(C)c(=O)n2C | PGR | reporter gene, antagonist, MMTV-luciferase | T47D/A1-2 | 10 µM, 24 h, with: 5 nM progesterone | reference: maximal activity | remaining activity | 67% |
| C=CCn1c(=O)c2ccccc2n2c(SCC(=O)Nc3ccc(NC(C)=O)cc3)nnc12 | CHRM2 | ERK1/2 phosphorylation, antagonist | human cells | 0.3 µM, with: [3H]NMS, iperoxo at EC80 |  | pA2 | 10.4 ± 0.15 |
| CC(=O)OC1(C(C)=O)CCC2C3C=C(C)C4=CC(=O)C(O)CC4(C)C3CCC21C (centres unmarked) | PGR | agonist, measured: GREB1 | T47D | 100 nM, 8 h | reference: ethanol vehicle | mRNA fold change | 2.3 ± 0.1 fold change |
| O=C(NC[C@@H](Cc1ccccc1)N1CCC(O)(C(F)(F)F)CC1)C1(c2ccc(Cl)cc2)CCCC1 | TRPA1 (Homo sapiens, UniProt O75762, V875G) | calcium influx, agonist |  | concentration not given, V875G mutant |  | activation | inhibited |
| CCCC[C@H](C)/C=C(C)/C=C/C(=O)O | TRPA1 (Homo sapiens, UniProt O75762, I860A/K868A) | calcium influx, fluorescence calcium |  | I860A+K868A mutant | reference: wild type | potency shift | 122 fold |
| CCCCCSc1nc2c([nH]1)c(=S)n(C)c(=S)n2C | PGR | reporter gene, antagonist, MMTV-luciferase | T47D/A1-2 | 10 µM, 24 h, with: 5 nM progesterone | reference: maximal activity | remaining activity | 72% |
| CCCCCCCC(=O)Nc1ccc(OC)nc1C | Cocaine esterase (CES2, Homo sapiens, UniProt O00748) | enzyme activity, substrate |  | pH 8, 37 °C, substrate 3.13 to 100 µM |  | Km | 18 µM |
| CCCCCCCCNP(=O)(OCCCCCCCC)O[C@@H]1O[C@H](CO)[C@@H](O)[C@H](O)[C@H]1F (mixture of isomers) | GBA1 (Homo sapiens, UniProt P04062) | enzyme activity, irreversible inhibitor |  | pH 5.5, 37 °C, with: 2,4-dinitrophenyl beta-D-glucopyranoside |  | inactivation rate constant | 7.45 min⁻¹ |

| Compound | target | assay | test system | conditions | how to read | quantity | result |
| --- | --- | --- | --- | --- | --- | --- | --- |
| CCCCCCCC(=O)Nc1ccc(C)nc1OC | FAAH (Homo sapiens, UniProt O00519) | enzyme activity, substrate |  | 50 µM, pH 8, 37 °C |  | specific activity | 130 pmol/min/µg |
| CNc1ccccc1C(=O)O[C@H]1C[C@H](n2cnc3c(N)ncnc32)O[C@@H]1COP(=O)(O)OP(=O)(O)O | Unconventional myosin-Va (Gallus gallus, UniProt Q02440, D297C/G292C/I296C/S293C/V295G) | van't Hoff analysis |  | concentration not given, with: EDTA |  | T∆S of ligand binding | 5.1 ± 2.2 kcal/mol |
| [3H]C(CNC(=O)c1ccc(-c2ccsc2)cc1)C([3H])CN1CCN(c2ccccc2OCCF)CC1 (centres unmarked) | DRD3 (Homo sapiens, UniProt P35462) | radioligand, saturation binding | HEK293 membranes | 30 min, 37 °C, no NaCl |  | Bmax | 2700 fmol/mg protein |
| S=C(Nc1cc(Cl)cc(Cl)c1)Nc1cccc2[nH]ccc12 | Alpha-synuclein (SNCA, Homo sapiens, UniProt P37840) | fibril formation, ThT fluorescence kinetics |  | 100 µM, α-syn 2 µM, plateau phase | reference: DMSO vehicle | maximum ThT fluorescence | 19 ± 2% |
| COc1cc(C(=O)NS(=O)(=O)c2ccc(C(F)(F)F)cc2)ccc1Cc1cn(C)c2ccc(NC(=O)OC3CCCC3)cc12 | Tumor necrosis factor receptor superfamily member 1A (Homo sapiens, UniProt P19438) | TNF-induced IκB degradation, inhibitor | HEK293 cells | 0.01 to 500 nM |  | IκB degradation | inhibited |
| CNC(=O)C1CCN(C(=O)c2ccc(NC(=O)NC34CC5CC(C)(CC(C)(C5)C3)C4)cc2)CC1 | EPHX2 |  |  |  |  | lipophilic ligand efficiency | 6.54 |
| Cc1nn2c(N3CCN(C)CC3)cc(-c3ccccc3)nc2c1-c1ccccc1 | GTPase KRas, with CRAF (KRAS, Homo sapiens, UniProt P01116, G12D) | FLIM-FRET | BHK cells | 2 µM |  | KRAS G12D-cRaf interaction | no effect |
| CCCCCCCCCSc1nc2c([nH]1)c(=O)n(C)c(=S)n2C | Nr3c1 (Rattus norvegicus, UniProt P06536) | reporter gene, antagonist, MMTV-luciferase | T47D/A1-2 | 10 µM, 24 h, with: 5 nM dexamethasone | reference: maximal activity | remaining activity | 100% |
| C[C@@]1(CCCN2CCN(c3ccccn3)CC2)Cc2cc(Cl)ccc2C1=O | HTR1A (Homo sapiens, UniProt P08908) | binding, radioligand binding | HEK293, membranes | with: [3H]8-OH-DPAT |  | Hill slope | -0.58 ± 0.06 |
| Nc1ncc(-c2nc(N3CCOCC3)nc(N3CCN(C(=O)CCC(=O)N4CCN(CCCCCCNc5cccc6c5C(=O)N(C5CCC(=O)NC5=O)C6=O)CC4)CC3)n2)c(C(F)F)n1 (centres unmarked) | PIK3CB (Homo sapiens, UniProt P42338) | degrader, parallel reaction monitoring | MCF7 | 1 nM, 6 h |  | degradation | 20% |
| C=C(O[C@H]1C=CC=C(C(=O)O)[C@@H]1O)C(=O)O | Enterobactin synthase component B (entB, Escherichia coli, UniProt P0ADI4) | isochorismatase activity, substrate, LDH-coupled |  | with: 2,3-dihydroxybenzoate 0 µM |  | apparent Km | 9.2 µM |
| CC1=C(/C=C/C(C)=C/C=C/C(C)=C/C=O)C(C)(C)CCC1 | CNGA1 (Bos taurus, UniProt Q00194) | ion current, inhibitor, patch clamp |  | 200 nM, holding potential -50 mV, with: cGMP 2 mM |  | fast time constant of inhibition | 77 s |
| CC1=CC(C)=[N+]2C1=C(CCCCc1cn(C[C@@H]3[C@@H](O)[C@H](O)[C@@H](O)[C@@H]4O[C@H]34)nn1)c1c(C)cc(C)n1[B-]2(F)F | GBA1 (Homo sapiens, UniProt P04062, R534H) | tryptophan fluorescence |  | pH 7.4, complex with inhibitor |  | emission maximum | 333 nm |
| N#CCC(=O)N1CCN(C(=S)c2ccc(-c3cc(Cl)ccc3Cl)o2)CC1 | NPR2 (Homo sapiens, UniProt P20594) | HTRF, measured: cGMP | HEK293 overexpressing GC-B | with: subthreshold CNP | reference: saturating CNP | Emax | 62% |
| CCCCCCCCCc1nc2ccccc2c(=O)n1N | Staphylococcus aureus membranes | di-8-ANEPPS fluorescence ratio |  | 40 µM |  | membrane dipole potential change | increased |
| CC(C)C(N)C(=O)NC1CCN(C(=O)c2ccc(NC(=O)NC34CC5CC(C)(CC(C)(C5)C3)C4)cc2)CC1 (centres unmarked) | EPHX2 |  |  |  |  | lipophilic ligand efficiency | 6.85 |
